Measured values pooled from the literature.
Numbered parts are unrelated; each lists some results of a single study.

Set 1
Target: RING finger protein unkempt homolog, zinc fingers 1-6, GST-SBP tag (UNK, Homo sapiens, UniProt Q9C0B0, residues 30-357)
Chain of UniProt Q9C0B0 (30-357, looked up): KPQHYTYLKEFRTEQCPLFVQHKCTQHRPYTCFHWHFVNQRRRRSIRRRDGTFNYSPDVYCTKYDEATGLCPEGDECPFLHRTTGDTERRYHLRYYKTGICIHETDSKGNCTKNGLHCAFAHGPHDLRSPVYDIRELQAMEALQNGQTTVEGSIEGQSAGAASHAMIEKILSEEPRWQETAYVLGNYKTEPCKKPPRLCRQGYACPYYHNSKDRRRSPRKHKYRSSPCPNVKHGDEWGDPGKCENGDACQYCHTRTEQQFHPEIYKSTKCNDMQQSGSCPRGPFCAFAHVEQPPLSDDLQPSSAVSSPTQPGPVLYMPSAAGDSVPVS
Method: RNA Bind-n-Seq
Form: RNA
Sample: in vitro
Tested at: not given
Setting: RNA with constant flanks, ends assumed
Relative to: input RNA pool
Reading: higher = stronger binding
The bound/input enrichment of `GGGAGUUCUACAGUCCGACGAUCUUCCCAAGACCUUUAUAGGUGAUUUUGUUUUCUGGGCUCCUUAACUUCAUAAAUAGCCCGUAUCUUCCAGCAGUAGUAACAGUCUGGAUAACUUCUUCCAUAUCCCUCCCUCUUUGUUUUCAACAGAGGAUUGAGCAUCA` is reported as 0.819 ratio.
`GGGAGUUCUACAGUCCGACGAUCUCAUUGGGUUACUCCUAUUAUCAAGUAGCUGGAAUUGUGAAGGUUGAGUAGUUAGAUCUUCCGCUUUUAUUCAUUAUUUUUUGUAUUACUCUCCAUGUGUAUAAAUUAUUGAUCAUGUUGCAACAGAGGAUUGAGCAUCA` gave a bound/input enrichment of 3.23 ratio.
With `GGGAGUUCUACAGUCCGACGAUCCACCGCAACCUUUCCUUUUUCCCCCAGUGAUUCUGAAAAACCCCUCUUCCCUUCAGCUUGCUCCGAUGUUCCAAAUUUAGUAAGCUUAAGGCGGCCUACAGAAGAAAAAGAAAAAAAAGGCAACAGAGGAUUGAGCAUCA` the bound/input enrichment was 0.993 ratio.
`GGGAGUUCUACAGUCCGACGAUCCGUCCUUGUUAAGCACUGCUUUCCAGACCGUGUCUGACUUAGUCAACCUAGAGGAUUUUACCGUUUCACUCUAAUGAAGUCCUGAUUAACACAGAGCAGCGGAGCAGCGGUCCCUCCCCUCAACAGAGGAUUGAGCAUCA` gave a bound/input enrichment of 0.313 ratio.
The bound/input enrichment of `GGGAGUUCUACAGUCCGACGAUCUUUGUUACCUAACCAACCUUCACUGAAAGGCAAAUUUAGUUCAGGAGGUUAGUUUUCCGCCCGCUUUGGAAGUAAGCCUUUAUUUAUUACUUUUUGGAGGAAAUCAGAGAAGUGUCAAUGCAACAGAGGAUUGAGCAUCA` is reported as 0.349 ratio.
`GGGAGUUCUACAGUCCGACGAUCGGAAGAGGUGGUGACCAGCAGAGUGGUUAUGGGAAGGUAUCCAGGCGAGGUGGUCAUCAAAACCGCUACAAACCAUACUAAAUUAUUCCAUUUGCAACUUAUCCCCAACAGGUGGUGAAGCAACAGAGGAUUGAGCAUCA` gave a bound/input enrichment of 0.532 ratio.
The bound/input enrichment of `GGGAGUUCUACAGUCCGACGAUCACAGACAUUCGCUGCCCCUUUGAAAAACGAAGAGAUGCAGCAUGUGUGUUUUGGGACAAUGCCGUAUACAUUUUGGGAGGUUCUCAGCUUUUCCCCAUAAAGCGAAUGGAUUGCUACAAUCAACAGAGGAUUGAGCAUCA` is reported as 0.12 ratio.
The bound/input enrichment of `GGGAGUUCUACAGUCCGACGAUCAUAAUAAAAGCCUCCAGCAAAGACGCCAUCAGGCUCUUGGAUUCUGUGCCUCCCACUGCCAUCCGCCAUUUCAAGCAGUCAGCUGAGAAGCUGAUUGAGGAGAAGGGAGCUGUAGAGGCCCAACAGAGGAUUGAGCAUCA` is reported as 0.229 ratio.
For `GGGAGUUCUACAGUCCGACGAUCCAUGAAGGAACACUGGAUGACUUUACAGUUUUAAACAGACGCAAAAAGGUAGCCAGCAAUGCCGCAUCAGCAGUGAAAAGGCCAUUUAAUUUCAUGGCAAAUUUUCCUUGUCCACCUUCACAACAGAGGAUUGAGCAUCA`, the bound/input enrichment was 0.164 ratio.
The bound/input enrichment of `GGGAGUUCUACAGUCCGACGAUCAAUCACUUUGAAGUCCUCCCUCCCGAGCUGGGAGACUGCCGGGCUCUGAAGCGAGCCGGGCCCGUUGUGGAAGAUGCUCUGUUUGAGACUCUGCCCUCAGAUGUCCGGGAGCAGAUGAAACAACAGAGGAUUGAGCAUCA` is reported as 0.154 ratio.
With `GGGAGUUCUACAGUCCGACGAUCGGGUGGGGGUUGUCAUUGCCAAUUGAGCUGCUGAUUCUUAUGAAUCACAUUCAGAACUCGCACCGGGUUGACACUGUAAGGGGUGGGGAAAUCUAGCUAUUUUUUUUUCCCCAGCCCAUUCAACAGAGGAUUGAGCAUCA` the bound/input enrichment was 0.419 ratio.

Set 2
Target: Histone acetyltransferase KAT6A, winged helix 1, GST fusion (KAT6A, Homo sapiens, UniProt Q92794, residues 1-85)
Method: protein binding microarray
Form: double-stranded DNA, one strand shown
Sample: in vitro
Tested at: not given
Setting: 8-mer, flanks averaged, mean of 2 arrays, mostly near background
Relative to: not given
Reading: higher = stronger binding
Target sequence (chain): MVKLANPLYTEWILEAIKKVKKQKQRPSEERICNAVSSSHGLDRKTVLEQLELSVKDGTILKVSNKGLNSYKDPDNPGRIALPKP
The E-score of `CTACCTCA` is reported as -0.143.
`CTGCCACC` has an E-score of -0.0709.
`ACACGATC` has an E-score of -0.127.
With `CACTCATG` the E-score was -0.0163.
`CAAGCGAG` gave an E-score of -0.00891.
With `TACCGATA` the E-score was 0.00386.
The E-score of `AGCGGAAA` is reported as 0.186.
`ATGACTGA` has an E-score of -0.136.
`ACGAAGTG` has an E-score of -0.143.
`CCGGCACC` gave an E-score of 0.255.
`CGTTGTGC` has an E-score of 0.136.
`CGGGAACA` gave an E-score of 0.25.
With `AGGTCTTG` the E-score was -0.121.
With `GGGACCCC` the E-score was 0.14.
The E-score of `GCAACCAA` is reported as -0.122.
With `ACTTTTTA` the E-score was -0.0679.
`TCTCCAAA` gave an E-score of -0.314.
For `AGAACACT`, the E-score was 0.0955.
With `AGGGAATA` the E-score was -0.0541.
`AGTGTATA` gave an E-score of -0.0835.
With `CCGAAGAA` the E-score was -0.0391.
`AAAGACAT` gave an E-score of -0.0508.
`CTAACGAA` has an E-score of 0.0438.
`GAACACGC` has an E-score of 0.237.
`TATTCTAA` has an E-score of -0.211.

Set 3
Target: Prothrombin, mature alpha-thrombin (F2, Homo sapiens, UniProt P00734)
Method: aptamer microarray, sandwich
Form: DNA with 2'F-ANA
Sample: in vitro
Tested at: 200 nM
Setting: whole 15-mer aptamer, many near background
Added: Cy3 exosite-II aptamer, 400 nM
Reading: higher = stronger binding
Sequence: GGTTGGTGTGGTTGG
`2'F-ANA at 1 3 4 5 6 9 11 12 13`: “mean fluorescence intensity” 104 a.u.
Under “mean fluorescence intensity”, `2'F-ANA at 2 7 8 9 10 14` is recorded as 94.5 a.u.
`2'F-ANA at 1 2 4 7 8 9 11 15`: “mean fluorescence intensity” 113 a.u.
`2'F-ANA at 1 2 3 6 7 11 12 14 15` — result for “mean fluorescence intensity”: 78.7 a.u.
Under “mean fluorescence intensity”, `2'F-ANA at 2 4 6 7 9 10 13 14 15` is recorded as 60.4 a.u.
`2'F-ANA at 5 7 10 13 15` — result for “mean fluorescence intensity”: 46.5 a.u.
For `2'F-ANA at 2 3 5 7 8 9 10 13`, “mean fluorescence intensity” read 82.8 a.u.
Under “mean fluorescence intensity”, `2'F-ANA at 1 3 5 6 8 9 10 11 12` is recorded as 53 a.u.
`2'F-ANA at 4 5 8 10 11 14 15` — result for “mean fluorescence intensity”: 46.8 a.u.
For `2'F-ANA at 1 2 5 6 8 9 10 11 12 13`, “mean fluorescence intensity” read 54.6 a.u.
For `2'F-ANA at 2`, “mean fluorescence intensity” read 450 a.u.
For `2'F-ANA at 1 2 5 7 8 9 10 12 14`, “mean fluorescence intensity” read 48.5 a.u.
`2'F-ANA at 1 3 4 8 12 13 15`: “mean fluorescence intensity” 372 a.u.
`2'F-ANA at 2 10`: “mean fluorescence intensity” 142 a.u.
`2'F-ANA at 1 3 5 8 12`: “mean fluorescence intensity” 164 a.u.
For `2'F-ANA at 2 4 5 7 8 9 12 13`, “mean fluorescence intensity” read 93.4 a.u.
For `2'F-ANA at 2 4 9`, “mean fluorescence intensity” read 337 a.u.
`2'F-ANA at 1 2 3 5 10 12 14`: “mean fluorescence intensity” 44.7 a.u.
`2'F-ANA at 1 2 3 4 7 8 10 12 13`: “mean fluorescence intensity” 66.1 a.u.
`2'F-ANA at 2 4 5 6 7 8 11 12 14 15` — result for “mean fluorescence intensity”: 48.2 a.u.
`2'F-ANA at 1 4 8 9 10 13 14`: “mean fluorescence intensity” 51 a.u.

Set 4
Target: RNA binding protein fox-1 homolog 2, RRM domain, GST-SBP tag (RBFOX2, Homo sapiens, UniProt O43251-10, residues 100-194)
Method: RNA Bind-n-Seq
Form: RNA
Sample: in vitro
Tested at: 365 nM
Setting: natural RNA segment, single round, ends assumed
Relative to: no-protein control
Reading: higher = stronger binding
Construct (chain): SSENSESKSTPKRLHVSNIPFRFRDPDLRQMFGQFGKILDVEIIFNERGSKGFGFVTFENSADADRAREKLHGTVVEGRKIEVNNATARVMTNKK
Under “RBNS enrichment (R)”, `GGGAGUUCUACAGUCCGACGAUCUUUCCUGAUUACUAGAAGCUGACCUCUGCUAUCCUGGGUAAGAACGCCCUGAGUACGGGUACCAUGCUCUGUUUACUUUAGGAUCUCCAGCACCAAGCAAGUGCCUGGCAUGGAAUUCUCGGGUGCCAA` is recorded as 0.765.
`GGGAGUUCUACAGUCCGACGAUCACCGUGCAGGUUGUGGCCGGUUUUCUCCGCAGGUUGAACAUGGAAAUAAAAGCAAACUUGUAUGAAAAACCGGUCUUUCUCCUCUCUUUGAAUGUAGAUAGAGACCUUGAUGGAAUUCUCGGGUGCCAA`: “RBNS enrichment (R)” 1.17.
For `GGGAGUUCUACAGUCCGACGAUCUGGUGUAAAUUUUAAAAUUUUGUAUAGGUAUUUCAUAACAAAAAAUUAUGUAUUUCUUUGUUAUUUUAUCUUGAAGACGGUACAUAUUUUCGUAUUUGUGCAGAAAAACAUGGAAUUCUCGGGUGCCAA`, “RBNS enrichment (R)” read 0.881.
`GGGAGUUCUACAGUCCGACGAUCUGGUCACCUUCAUGGUGACCUCUCCAUUAUUCUGUCUCACUUGGAACCAUUUUCAGUUUAUUUACUAUGCAAUAGACAGUCCUUGUUUUGUACUCAGCUAGCUUUGAUUUUGGAAUUCUCGGGUGCCAA` — result for “RBNS enrichment (R)”: 0.447.
`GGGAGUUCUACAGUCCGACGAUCAGUGUCUGCAGUAGGGGACCCAGAGUCCCAGGCCCCUGGAGUUGUUUUCGGCAGGGGCCUUGUCUCUCACUGCAUUUGGUCAGGGGGGCAUGAAUAAAGGCUACAGGCUCUGGAAUUCUCGGGUGCCAA`: “RBNS enrichment (R)” 0.977.
`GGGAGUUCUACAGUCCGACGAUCCAUCUAGUAAAAUGGCUGAAGGGGAAGAGAAGGAGGACCAAUCUGAAGACAAGAGCUCACCCACUGUGCCUCCCAGCCCAUUCCCUGCCCCCUCAAAGCCUUCAGCCACCUGGAAUUCUCGGGUGCCAA`: “RBNS enrichment (R)” 0.376.
`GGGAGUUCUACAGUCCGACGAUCACUUUUAUGCAGCAAAUAUAUGAUUCUAGUGUCUGACUUUUGUUAAAUUCAGUAAUGCAGUUUUUAAAAACCUGUAUCUGACCCACUUUGUAAUUUUUGCUCCAAUAUCCUGGAAUUCUCGGGUGCCAA` — result for “RBNS enrichment (R)”: 0.696.
Under “RBNS enrichment (R)”, `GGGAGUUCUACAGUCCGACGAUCAGGGCCACCGCCACAGCCCGGCAGAGGGGCACACUCUGGAGACCUUGCUGGCAGUGCUAGCCAGGAAACAGAGUGACCAAGGGACAAGAAGGGACUUGCCUAAAGCCACCUGGAAUUCUCGGGUGCCAA` is recorded as 0.217.
Under “RBNS enrichment (R)”, `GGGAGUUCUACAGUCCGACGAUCUUUAUCUUCUUGCACAUGUUUGUACAGAAAUCACCUUCAUCCUUGUGGUGCUUACACACACCCAGUUGUCUCCACAGCUCUGAUACCUUUGCCUUCUGUUCUCCUCUCUAUGGAAUUCUCGGGUGCCAA` is recorded as 0.392.

Excerpt of the above (set 3):
Under “mean fluorescence intensity”, `2'F-ANA at 2 4 6 7 9 10 13 14 15` is recorded as 60.4 a.u.
`2'F-ANA at 5 7 10 13 15` — result for “mean fluorescence intensity”: 46.5 a.u.
For `2'F-ANA at 2 3 5 7 8 9 10 13`, “mean fluorescence intensity” read 82.8 a.u.
Under “mean fluorescence intensity”, `2'F-ANA at 1 3 5 6 8 9 10 11 12` is recorded as 53 a.u.
`2'F-ANA at 4 5 8 10 11 14 15` — result for “mean fluorescence intensity”: 46.8 a.u.
For `2'F-ANA at 1 2 5 6 8 9 10 11 12 13`, “mean fluorescence intensity” read 54.6 a.u.
For `2'F-ANA at 2`, “mean fluorescence intensity” read 450 a.u.
For `2'F-ANA at 1 2 5 7 8 9 10 12 14`, “mean fluorescence intensity” read 48.5 a.u.
`2'F-ANA at 1 3 4 8 12 13 15`: “mean fluorescence intensity” 372 a.u.
`2'F-ANA at 2 10`: “mean fluorescence intensity” 142 a.u.
